Experimental data collected from several papers.
Numbered parts are unrelated; each lists some results of a single study. Substitutions count along the parent as printed.

Sample 1 — method: RNA Bind-n-Seq; molecule type: RNA; sample: in vitro; concentration: 200 nM; setting: whole 134-nt RNA, ends assumed; together with: 150 mM LiCl; baseline: input library; reading: higher = stronger binding; quantity: log2 enrichment; each molecule: 7-deaza-guanosine replaces G
Target: Ras GTPase-activating protein-binding protein 1, full length (G3BP1, Homo sapiens, UniProt Q13283)
Chain of UniProt Q13283 (whole entry, looked up): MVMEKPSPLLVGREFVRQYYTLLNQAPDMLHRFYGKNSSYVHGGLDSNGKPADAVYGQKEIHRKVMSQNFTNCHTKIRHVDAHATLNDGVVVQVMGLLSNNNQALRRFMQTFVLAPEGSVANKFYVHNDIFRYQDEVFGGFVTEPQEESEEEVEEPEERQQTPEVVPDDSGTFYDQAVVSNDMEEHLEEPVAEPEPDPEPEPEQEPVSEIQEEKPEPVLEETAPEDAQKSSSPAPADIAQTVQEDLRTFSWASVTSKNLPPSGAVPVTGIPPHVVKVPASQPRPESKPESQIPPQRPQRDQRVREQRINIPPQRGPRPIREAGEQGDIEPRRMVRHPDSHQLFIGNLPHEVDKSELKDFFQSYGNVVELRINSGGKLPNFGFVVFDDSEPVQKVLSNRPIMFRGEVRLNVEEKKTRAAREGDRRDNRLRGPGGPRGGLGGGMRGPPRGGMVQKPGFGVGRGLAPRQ
All sequences stand within: GGGAGUUCUACAGUCCGACGAUC … UGGAAUUCUCGGGUGUCAAGG
UGGAGAAGCGCUACCUGGCUGCUCAGCGUGAGGCAACAUCCAUCCAUGACCUCAAUGACAAGCUGGAGAAUGAGCUGGCCAACAAGGAGU: -0.26
CUCAAGUCCUGUGCUACACAUCGUAUGUACCGAAUCGGAGGGGAGGGGAGGGGAAAGUAUUAUGUUACGCCGUUCGGAUCUGCACUUCCA: 0.19
CCUCAAGUCCUGUGCUACACAUCGUAUGUACCGAAUCGGGGUGGUGGGGUGGAAAGUAUUAUGUUACGCCGUUCGGAUCUGCACUUCCAG: -0.168
GUCCUGUGCUACACAUCGUAUGUACCGAAUCGGGGAGGGGAAAGGGGUUUUUUUGGGGAAAGUAUUAUGUUACGCCGUUCGGAUCUGCAC: 0.743
UCCUGUGCUACACAUCGUAUGUACCGAAUCGGGUUUUUGGGAAAAAAAGGGAAAAAGGGAAAGUAUUAUGUUACGCCGUUCGGAUCUGCA: -1.38
UUGAAAGAAUUUGCCAACUUUGACUUUGAUGUCUGGAGGAAAAAGUAUAUGCGUUGGAUGAAUCACAAAAAGUCUCGAGUGAUGGAUUUC: -3.11
UCCUGUGCUACACAUCGUAUGUACCGAAUCGGGCCCCCCGGCCCCCCGGGCCCCCCGGGGAAAGUAUUAUGUUACGCCGUUCGGAUCUGC: 0.0328

Sample 2 — method: protein-binding microarray; molecule type: double-stranded DNA, one strand shown; sample: in vitro; concentration: 0.8 µM; setting: whole 60-bp probe, no competitor; reading: higher = stronger binding; quantity: fluorescence intensity; all sequences stand within: … GTCTTGATTCGCTTGACGCTGCTG
Target: Centromere-binding protein 1, full length, N-terminal tag (CBF1, Saccharomyces cerevisiae, UniProt P17106, residues 1-351)
Chain of UniProt P17106 (whole entry, looked up): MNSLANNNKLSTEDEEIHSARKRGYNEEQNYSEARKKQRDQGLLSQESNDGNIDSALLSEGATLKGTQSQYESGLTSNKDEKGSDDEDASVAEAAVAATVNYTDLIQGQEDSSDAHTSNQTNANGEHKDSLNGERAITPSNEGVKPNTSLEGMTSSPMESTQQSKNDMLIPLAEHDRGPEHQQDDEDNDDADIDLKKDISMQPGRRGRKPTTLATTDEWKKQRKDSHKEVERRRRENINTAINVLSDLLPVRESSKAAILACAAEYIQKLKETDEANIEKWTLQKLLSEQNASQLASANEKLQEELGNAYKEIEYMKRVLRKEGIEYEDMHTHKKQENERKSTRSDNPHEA
GAATCAGACTAACATGATGTTAGCAACGAGAGTTAG: 482 a.u.
CTATACTGATCAGGTGATGAGACGATAAAAACATTC: 7010 a.u.
CCTAACTACTATAATCACCCCGCATAGCTTCGTACA: 508 a.u.
CTATCACCGCTTTACCACGCAAAGATATCTGGATTC: 546 a.u.
CTACTCAATTTGGTGAGCGTGCGGCTGATGGTCTTC: 549 a.u.
GAAATTTGATCCCGACTGATGATGATTTTCTTCTAG: 554 a.u.

Sample 3 — target: CCNB1, cyclin fold, Cln2 fusion (human); method: yeast growth competition, sequencing; sample: yeast; setting: weak parent motif; baseline: not given; reading: higher = stronger binding; quantity: normalised enrichment score
Parent: RB1 docking peptide (human); PKPLKKLRFDIEG
P3C: 2.21
R8E: 0.306
I11F: 0.894
G13T: 0.0364
L7P: 0.535
R8A: 0.519

Other studies, line by line
PhoQ, residues 284 288 289 292 302 303 SVHLDV
fold induction (PhoP, residues 12 14 15 18 19 SEGLL (Escherichia coli, UniProt P23836); Sort-seq, refers to: YFP reporter; E. coli; PhoQ-PhoP variant library, together with: 10 µM Mg2+; baseline: high Mg2+ state, higher = stronger signaling): 21.2
